Experimental data gathered from unrelated publications.
± gives the spread as reported.

CN(Cc1cc(C2CC2)on1)C(=O)c1cccc(-c2ccc(F)cc2)c1
half-life (ICR/CD-1 mouse, male, liver microsomes; 2 µM, pH 7.5, with: 1-aminobenzotriazole 500 µM, preincubated 30 min): > 2 h

O=C(c1ccccc1)N1C(c2ccc(OCC3CCN(CCCF)C3)cc2)c2ccc(O)cc2CC12CC2 (centres unmarked)
half-life (C57BL/6J mouse, plasma; oral, 25 mg/kg, group mean): 4.02 h

O=C(NS(=O)(=O)c1cccs1)c1cc2ccccc2n1Cc1ccc(Br)c2ccccc12
half-life (mouse, plasma; oral, 2 mg/kg): 0.84 h

Nc1nc2cnc(C(=O)N3CCOC[C@@H]3c3ccc(C(F)(F)F)cc3)cc2c2c1COC2
half-life (mouse; 5 mg/kg): 1.6 h

CCCCCCCCCCCCCCCC(=O)N[C@@H](CCC(=O)NCCCC[C@H](NC(=O)[C@H](CCC(N)=O)NC(=O)[C@H](Cc1c[nH]cn1)NC(=O)[C@@H](NC(=O)[C@H](CCCCN)NC(=O)[C@H](CC(=O)O)NC(=O)[C@H](CCSC)NC(=O)[C@H](C)NC(=O)[C@@H](NC(=O)[C@H](CO)NC(=O)[C@H](Cc1ccc(O)cc1)NC(=O)[C@H](CC(=O)O)NC(=O)[C@H](CO)NC(=O)[C@@H](NC(=O)[C@H](Cc1ccccc1)NC(=O)[C@@H](NC(=O)CNC(=O)[C@H](CCC(=O)O)NC(=O)[C@H](C)NC(=O)[C@H](Cc1ccc(O)cc1)NCC(F)(F)F)[C@@H](C)O)[C@@H](C)CC)[C@@H](C)CC)[C@@H](C)CC)C(=O)N[C@@H](CC(=O)O)C(=O)N[C@@H](Cc1ccccc1)C(=O)N[C@H](C(=O)N[C@@H](CC(N)=O)C(=O)N[C@@H](Cc1c[nH]c2ccccc12)C(=O)N[C@@H](CC(C)C)C(=O)N[C@@H](CC(C)C)C(=O)N[C@@H](C)C(=O)N[C@@H](CCC(N)=O)C(=O)N[C@@H](CCCCN)C(=O)NCC(=O)N[C@@H](CCCCN)C(=O)N[C@@H](CCCCN)C(=O)N[C@@H](CC(N)=O)C(=O)N[C@@H](CC(=O)O)C(=O)N[C@@H](Cc1c[nH]c2ccccc12)C(=O)N[C@@H](CCCCN)C(=O)N[C@@H](Cc1c[nH]cn1)C(=O)N[C@@H](CC(N)=O)C(=O)N[C@H](C(=O)N[C@H](C(=O)N[C@@H](CCC(N)=O)C(=O)O)[C@@H](C)O)[C@@H](C)CC)C(C)C)C(=O)O
half-life (GIPR luciferase bioassay; C57BL/6 mouse, male, serum; subcutaneous, 1.25 µg): 9.7 h

CCC1(CC)CC(=O)N(C2CCOc3ccc(C(=O)NC4CC(C)(C)Oc5ccccc54)cc32)C(=N)N1 (centres unmarked)
half-life (C57BL/6 mouse male, plasma): 5.7 ± 0.6 h

C=CC(=O)Nc1ccc(-n2nc3c(=O)[nH]nc(N)c3c2-c2oc3ccc(C)cc3c2C)cc1
half-life (BALB/c nude mouse, whole blood; 1 µM, 37 °C): 1.93 h

O=[N][Fe]1([N]=O)[S](CCO)[Fe]([N]=O)([N]=O)[S]1CCO
half-life (C57BL/6JNarl mouse, plasma; oral, 13.25 mg/kg): 0.94 ± 0.19 h

COc1ccc2nc(NC(=O)c3ccc(C(N)c4ccccc4)cc3)sc2c1 (centres unmarked)
half-life (CD-1 mouse, mouse liver S9 fraction; 2 µM): 3.03 h

C=C1CN(C(=N)N)CC2Nc3c(F)cc(Br)cc3C12CCNS(=O)(=O)c1ccc(Cl)cc1.O=C(O)C(F)(F)F (centres unmarked)
half-life (mouse; intraperitoneal, 30 mg/kg): 2.5 h

C=CC(=O)Nc1ccc(-n2nc3c(=O)[nH]nc(N)c3c2-c2oc3ccc(Br)cc3c2C)cc1
half-life (BALB/c nude mouse, whole blood; 1 µM, 37 °C): 2.71 h

Cn1cnc([N+](=O)[O-])c1Sc1ccccc1C(=O)NCCC(N)=O
half-life (LC-MS/MS; CD-1 mouse, whole blood; 1 µM, 37 °C): 0.43 h

O=C1CCC(N2Cc3cc(C(=O)O)c(F)cc3C2=O)C(=O)N1 (centres unmarked)
half-life (male CD-1 mouse, plasma; oral, 10 mg/kg of parent drug): 1.8 ± 0.9 h

O=S(=O)(N[C@H]1CCC[C@@H](N2c3ccccc3CCc3ccccc32)[C@@H]1O)c1ccc(OC(F)(F)F)cc1
half-life (mouse, plasma; oral, 100 mg/kg, solution): 5.1 h

O=c1c(-c2cnn(-c3ccc(Cl)cc3)c2)c(C(F)(F)F)oc2c(O)c(O)ccc12
half-life (mouse; intraperitoneal, 100 mg/kg, DMSO vehicle): 9.6 h

C/C(=N\Nc1ncnc2sc3c(c12)CCCC3)c1cc(O)ccc1O
half-life (ICR mouse, plasma; oral, 30 mg/kg): 3.29 h

O=S(=O)(NCc1ccncc1)c1ccc(C2CCCCC2)cc1
half-life (C57BL/6J mouse, male, peripheral fat; intraperitoneal, 0.3 mg/kg): 1.1 h

Repeated from above:
O=[N][Fe]1([N]=O)[S](CCO)[Fe]([N]=O)([N]=O)[S]1CCO
half-life (C57BL/6JNarl mouse, plasma; oral, 13.25 mg/kg): 0.94 ± 0.19 h

Nc1nc2cnc(C(=O)N3CCOC[C@@H]3c3ccc(C(F)(F)F)cc3)cc2c2c1COC2
half-life (mouse; 5 mg/kg): 1.6 h
